Measurements of several laboratories.
Each numbered part is a random draw from the data of one study; scales do not carry over between parts. Positions count from the first letter of the parent shown.

Block 1 — method: RNA Bind-n-Seq; molecule type: RNA; sample: in vitro; tested at: 1 µM; notes: whole 134-nt RNA, ends assumed; with: 150 mM KCl; relative to: input library; reading: higher = stronger binding
Target: Ras GTPase-activating protein-binding protein 1, RRM domain (G3BP1, Homo sapiens, UniProt Q13283)
Chain of UniProt Q13283 (whole entry, looked up): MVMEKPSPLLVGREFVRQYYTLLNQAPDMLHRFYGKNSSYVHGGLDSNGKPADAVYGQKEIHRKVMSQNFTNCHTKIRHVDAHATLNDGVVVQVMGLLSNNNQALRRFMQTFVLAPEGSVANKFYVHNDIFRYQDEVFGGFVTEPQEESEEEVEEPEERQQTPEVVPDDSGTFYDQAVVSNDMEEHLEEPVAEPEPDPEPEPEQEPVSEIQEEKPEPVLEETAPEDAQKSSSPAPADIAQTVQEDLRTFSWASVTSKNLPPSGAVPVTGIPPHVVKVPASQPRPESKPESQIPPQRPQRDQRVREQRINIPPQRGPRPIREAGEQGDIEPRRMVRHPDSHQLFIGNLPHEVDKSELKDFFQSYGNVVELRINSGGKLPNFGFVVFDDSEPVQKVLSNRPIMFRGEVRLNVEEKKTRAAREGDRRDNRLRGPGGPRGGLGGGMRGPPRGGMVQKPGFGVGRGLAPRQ
Shared flanks, not repeated: GGGAGUUCUACAGUCCGACGAUC … UGGAAUUCUCGGGUGUCAAGG
`UAACUUUAAAGGAGGAUCUGAUGGAUAUGGCAGUGGACGUGGAUUUGGGGAUGGCUAUAAUGGGUAUGGAGGAGGACCUGGAGGUGGCAA` gave a log2 enrichment of -0.731.
The log2 enrichment of `UAACUUUAGAGGAGGAUCUGAUGGAUAUGGCAGUGGACGUGGAUUUGGGGAUGGCUAUAACGGGUAUGGAGGAGGACCUGGAGGUGGCAA` is reported as -0.531.
The log2 enrichment of `UGUGCUACACAUCGUAUGUACCGAAUCGGGUUUUUUUGGGUUUUUUUGGGGUUUUUUUGGGGAAAGUAUUAUGUUACGCCGUUCGGAUCU` is reported as 0.00269.
For `CCUCAAGUCCUGUGCUACACAUCGUAUGUACCGAAUCGGAGGAAAGGAAAGGAAAGUAUUAUGUUACGCCGUUCGGAUCUGCACUUCCAG`, the log2 enrichment was -0.182.
`UGUGCUACACAUCGUAUGUACCGAAUCGGAAAAAAAGGGGAAAAAAAGGGGAAAAAAAGGGGAAAGUAUUAUGUUACGCCGUUCGGAUCU` gave a log2 enrichment of 0.309.
With `UCAAGUCCUGUGCUACACAUCGUAUGUACCGAAUCGGGGAGGGGAGGGGAGGGGAAAGUAUUAUGUUACGCCGUUCGGAUCUGCACUUCC` the log2 enrichment was 1.05.
`UAACUUUAGAGGAGGAUCUGAUGGAUAUGGCAGUGGACGUGGAUUUGGGUAUGGCUAUAAUGGGUAUGGAGGAGGACCUGGAGGUGGCAA` gave a log2 enrichment of -0.635.
With `UCAAGUCCUGUGCUACACAUCGUAUGUACCGAAUCGGGAGGGUGGGUUUUUGGGAAAGUAUUAUGUUACGCCGUUCGGAUCUGCACUUCC` the log2 enrichment was 0.84.
`CUCAAGUCCUGUGCUACACAUCGUAUGUACCGAAUCGGGAGGGGAGGGGAGGGGAAAGUAUUAUGUUACGCCGUUCGGAUCUGCACUUCC` gave a log2 enrichment of 1.
The log2 enrichment of `CCUGUGCUACACAUCGUAUGUACCGAAUCGGGCCCCCCCGGGCCCCCCCGGCCCCCCCGGAAAGUAUUAUGUUACGCCGUUCGGAUCUGC` is reported as -0.592.

Block 2 — target: CREB3L1, bZIP domain (human); method: DHFR protein complementation; sample: yeast; relative to: wild-type JUN-FOS pair; reading: higher = stronger binding
Notes: single substitutions, most at no-binding floor
Starting sequence: JUN, bZIP domain (human); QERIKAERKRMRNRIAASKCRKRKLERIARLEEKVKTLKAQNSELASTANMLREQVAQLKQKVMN; partner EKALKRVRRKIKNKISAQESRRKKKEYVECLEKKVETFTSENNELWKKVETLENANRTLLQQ
`L59T` has a binding fitness of -1.43 natural log.
The binding fitness of `L45F` is reported as -1.31 natural log.
`T48Y` has a binding fitness of -1.2 natural log.
The binding fitness of `E44R` is reported as -1.47 natural log.
With `A46W` the binding fitness was -1.3 natural log.
With `L38Y` the binding fitness was -1.52 natural log.
`L31M` has a binding fitness of -1.49 natural log.
The binding fitness of `E54Q` is reported as -1.45 natural log.
The binding fitness of `A49D` is reported as -1.39 natural log.
`E32Q` gave a binding fitness of -1.34 natural log.
The binding fitness of `A40V` is reported as -1.18 natural log.
With `S43Y` the binding fitness was -1.18 natural log.
The binding fitness of `Q41N` is reported as -1.49 natural log.
For `V56L`, the binding fitness was -1.4 natural log.
For `V56A`, the binding fitness was -1.45 natural log.

Block 3 — target: CCND2, cyclin fold, Cln2 fusion (human); method: yeast growth competition, sequencing; sample: yeast; notes: weak parent motif; relative to: not given; reading: higher = stronger binding
Starting sequence: SAMHD1 docking peptide (human); ASKSRVQLFKDDP; partner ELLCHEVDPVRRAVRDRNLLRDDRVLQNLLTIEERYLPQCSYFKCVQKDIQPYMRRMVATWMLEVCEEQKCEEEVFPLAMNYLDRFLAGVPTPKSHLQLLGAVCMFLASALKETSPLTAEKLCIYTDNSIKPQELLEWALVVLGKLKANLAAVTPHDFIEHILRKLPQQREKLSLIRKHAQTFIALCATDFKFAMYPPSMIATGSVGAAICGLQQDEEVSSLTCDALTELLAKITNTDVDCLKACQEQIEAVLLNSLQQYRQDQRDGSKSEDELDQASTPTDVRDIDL
`ASVSRVQLFKDDP [K3V]` — result for “normalised enrichment score”: 0.13.
Under “normalised enrichment score”, `ASKSRVQLFKDNP [D12N]` is recorded as 0.351.
For `ASKSRVQLFRDDP [K10R]`, “normalised enrichment score” read -0.0254.
`ASKSRVQLRKDDP [F9R]` — result for “normalised enrichment score”: 0.313.
`ASKTRVQLFKDDP [S4T]`: “normalised enrichment score” 0.414.
`ASKSRVRLFKDDP [Q7R]`: “normalised enrichment score” 0.501.
For `ASKSRVQLFHDDP [K10H]`, “normalised enrichment score” read 0.00433.
Under “normalised enrichment score”, `ASKSRVQCFKDDP [L8C]` is recorded as 0.229.
For `ASKSRVQLFKDFP [D12F]`, “normalised enrichment score” read -0.14.
For `ASQSRVQLFKDDP [K3Q]`, “normalised enrichment score” read -0.0831.
`ASKSRVQLFKDGP [D12G]` — result for “normalised enrichment score”: -0.0856.
For `ASKSRVQLFKDWP [D12W]`, “normalised enrichment score” read -0.4.
`ASKDRVQLFKDDP [S4D]`: “normalised enrichment score” 0.335.
`ASKSRVQYFKDDP [L8Y]`: “normalised enrichment score” 0.433.
For `ASISRVQLFKDDP [K3I]`, “normalised enrichment score” read 0.333.
For `ASKSHVQLFKDDP [R5H]`, “normalised enrichment score” read 0.0914.
For `ASWSRVQLFKDDP [K3W]`, “normalised enrichment score” read 0.327.
`ASKSFVQLFKDDP [R5F]`: “normalised enrichment score” -0.0446.
`ASKCRVQLFKDDP [S4C]` — result for “normalised enrichment score”: 0.561.
`AGKSRVQLFKDDP [S2G]`: “normalised enrichment score” 0.0197.
`ASESRVQLFKDDP [K3E]` — result for “normalised enrichment score”: 0.355.
`ASYSRVQLFKDDP [K3Y]`: “normalised enrichment score” -0.236.
Under “normalised enrichment score”, `ASKIRVQLFKDDP [S4I]` is recorded as 0.154.
`ASKSIVQLFKDDP [R5I]`: “normalised enrichment score” 0.551.
`ASKSRVQLFGDDP [K10G]` — result for “normalised enrichment score”: 0.361.

Block 4 — method: protein-binding microarray; molecule type: double-stranded DNA, one strand shown; sample: in vitro; tested at: 0.8 µM; notes: whole 60-bp probe, no competitor; reading: higher = stronger binding; shared flanks, not repeated: … GTCTTGATTCGCTTGACGCTGCTG
Target: Centromere-binding protein 1, full length, N-terminal tag (CBF1, Saccharomyces cerevisiae, UniProt P17106, residues 1-351)
Chain of UniProt P17106 (whole entry, looked up): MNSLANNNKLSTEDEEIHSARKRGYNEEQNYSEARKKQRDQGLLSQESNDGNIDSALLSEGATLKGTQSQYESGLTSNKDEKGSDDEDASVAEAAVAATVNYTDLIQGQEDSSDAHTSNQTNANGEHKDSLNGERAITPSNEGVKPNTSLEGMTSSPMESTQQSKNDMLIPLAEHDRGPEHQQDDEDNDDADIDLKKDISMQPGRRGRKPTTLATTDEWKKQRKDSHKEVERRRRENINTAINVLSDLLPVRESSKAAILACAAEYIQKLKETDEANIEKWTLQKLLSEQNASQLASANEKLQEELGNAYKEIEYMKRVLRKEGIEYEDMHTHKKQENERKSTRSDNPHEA
The fluorescence intensity of `CTAAAAAAGGTTTAACACATGAATTAAAAAGGATTC` is reported as 567 a.u.
`GAATGCTGTGACTGTCACGCAACATGTCCACCATAG` has a fluorescence intensity of 657 a.u.
The fluorescence intensity of `GAATCAAGTAGGTCCCTCGTGTCACATACGAGTTAG` is reported as 617 a.u.
The fluorescence intensity of `CTAGTGGTTTCTTTATACGTCACAAATCTGTATTTC` is reported as 557 a.u.
For `CTATGCATTATACAGAACGTGCTGAAAATGTAGTTC`, the fluorescence intensity was 989 a.u.
`CTATGGACTAGGCATCACCCAGACTTTACTTTTTTC` gave a fluorescence intensity of 515 a.u.
With `TGTACGAAGCTATATCACGGGAGTATAGTAGTTAGG` the fluorescence intensity was 889 a.u.
`CTAATGCCACTATGTGGTGTGAGGAAGCAGATATTC` gave a fluorescence intensity of 522 a.u.
`GAACCGGGACCAAAACACATGAAAGCGGTTCGCTAG` has a fluorescence intensity of 522 a.u.
For `CTAACGTGTTGAAATCACGATACTGGCATCCGATTC`, the fluorescence intensity was 870 a.u.
The fluorescence intensity of `TGTACGAAGCTATCAAGCATGACTATAGTAGTTAGG` is reported as 556 a.u.
`GAATTTCTGTTCAACCACGCGATGAGTTTTTTTTAG` has a fluorescence intensity of 630 a.u.
`GAAACTTATTGCCCGCACGAGAAAATCAGAGAATAG` has a fluorescence intensity of 605 a.u.
For `GAAGAGAACTACCCTGACGTCATCAGCGAAATTTAG`, the fluorescence intensity was 491 a.u.
With `CTATCACTTTCTGGGCACGATTGTAATAATACTTTC` the fluorescence intensity was 610 a.u.
The fluorescence intensity of `CTATGATAATCACTGCACGTGACTATCATGTGATTC` is reported as 20300 a.u.
For `CTAATTTATATGACTCACCTGGTAAAACATCTATTC`, the fluorescence intensity was 586 a.u.
For `GAAGCCGAGTCGCTTCACGAGGGGATGAGAAAGTAG`, the fluorescence intensity was 616 a.u.
With `CTATTTCAACCACTTCTGATGTTTTCTTTGAACTTC` the fluorescence intensity was 537 a.u.
`CCTAACTACTATAGCATCACCAGATAGCTTCGTACA` gave a fluorescence intensity of 514 a.u.

Block 5 — method: universal PBM; molecule type: double-stranded DNA, one strand shown; sample: in vitro; tested at: 600 nM; reading: higher = stronger binding
Target: Sal-like protein 4, full length isoform A (SALL4, Homo sapiens, UniProt Q9UJQ4, residues 1-1053)
Chain of UniProt Q9UJQ4 (whole entry, looked up): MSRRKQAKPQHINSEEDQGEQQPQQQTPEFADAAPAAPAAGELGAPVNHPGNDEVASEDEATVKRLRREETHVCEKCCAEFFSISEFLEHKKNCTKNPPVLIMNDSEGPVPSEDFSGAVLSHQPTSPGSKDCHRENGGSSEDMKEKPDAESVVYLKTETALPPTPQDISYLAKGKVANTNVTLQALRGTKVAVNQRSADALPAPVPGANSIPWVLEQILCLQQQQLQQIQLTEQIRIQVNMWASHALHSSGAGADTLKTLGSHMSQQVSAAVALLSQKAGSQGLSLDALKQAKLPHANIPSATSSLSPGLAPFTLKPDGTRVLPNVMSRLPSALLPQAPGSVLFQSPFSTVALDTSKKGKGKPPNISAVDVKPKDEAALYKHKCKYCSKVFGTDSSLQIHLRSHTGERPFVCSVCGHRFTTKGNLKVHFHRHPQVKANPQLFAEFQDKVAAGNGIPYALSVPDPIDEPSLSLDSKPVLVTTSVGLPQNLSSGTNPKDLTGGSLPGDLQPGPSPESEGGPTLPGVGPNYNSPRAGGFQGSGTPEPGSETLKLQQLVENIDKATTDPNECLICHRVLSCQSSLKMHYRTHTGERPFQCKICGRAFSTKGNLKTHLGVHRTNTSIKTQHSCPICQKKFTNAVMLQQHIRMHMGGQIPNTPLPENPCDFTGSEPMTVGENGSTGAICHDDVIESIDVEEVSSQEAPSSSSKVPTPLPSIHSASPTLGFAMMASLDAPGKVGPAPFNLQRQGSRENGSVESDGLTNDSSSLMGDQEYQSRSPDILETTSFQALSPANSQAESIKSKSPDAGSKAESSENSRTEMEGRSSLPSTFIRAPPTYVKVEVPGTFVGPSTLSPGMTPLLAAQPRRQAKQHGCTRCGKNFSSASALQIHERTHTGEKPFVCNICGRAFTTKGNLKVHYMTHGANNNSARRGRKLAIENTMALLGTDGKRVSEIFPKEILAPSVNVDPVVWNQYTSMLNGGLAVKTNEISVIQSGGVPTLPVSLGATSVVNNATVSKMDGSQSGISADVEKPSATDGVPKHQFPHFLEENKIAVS
Notes: 8-mer, flanks averaged, mean of replicates
For `CTTTGAGA`, the E-score was 0.116.
For `TCATAGAA`, the E-score was 0.252.
The E-score of `AGTGCAAA` is reported as 0.17.
`AAAAACCC` has an E-score of -0.0616.
For `GCAGGTCA`, the E-score was -0.118.
The E-score of `ATACGGAT` is reported as 0.112.
The E-score of `AGGCCGGA` is reported as -0.274.
`CGGAGAAC` has an E-score of -0.1.
For `TTAAGCAA`, the E-score was 0.254.
For `CACGCTCC`, the E-score was -0.308.
The E-score of `CGTGGGTA` is reported as -0.286.
The E-score of `CTGGGGCC` is reported as -0.414.
With `AACGACAG` the E-score was 0.0303.
`AGTGGAAT` has an E-score of 0.19.
`CCGTACAG` has an E-score of -0.101.
For `AACCGACC`, the E-score was -0.197.
`AGGGGTAA` gave an E-score of -0.0408.
`TACACGCA` has an E-score of -0.0425.
`AATTTGTA` has an E-score of 0.344.
`CAGTCTTC` gave an E-score of -0.178.
For `TTCCCCAA`, the E-score was -0.00857.
`CCAACTCC` has an E-score of -0.0614.
`CTGCTGTC` has an E-score of -0.17.
`ACGAATCC` has an E-score of -0.0455.
`AAAGTAAT` has an E-score of 0.322.

Further values, each from its own experiment
The fold induction of `PhoQ, residues 284 288 289 292 302 303 SLSVQF` is reported as 15 (PhoP, residues 12 14 15 18 19 SYFRT (Escherichia coli, UniProt P23836); Sort-seq, measured: YFP reporter; E. coli; PhoQ-PhoP variant library, with: 10 µM Mg2+; relative to: high Mg2+ state, higher = stronger signaling).
